Experimental data collected from several papers.
Protocols differ between the studies behind these lines. “And” joins repeats or separate records; there may be more than shown. Numbers after ± are the reported error.
CSNK1D: Casein kinase I isoform delta (CSNK1D, Homo sapiens, UniProt P48730)
Sequence of UniProt P48730 (whole entry, looked up): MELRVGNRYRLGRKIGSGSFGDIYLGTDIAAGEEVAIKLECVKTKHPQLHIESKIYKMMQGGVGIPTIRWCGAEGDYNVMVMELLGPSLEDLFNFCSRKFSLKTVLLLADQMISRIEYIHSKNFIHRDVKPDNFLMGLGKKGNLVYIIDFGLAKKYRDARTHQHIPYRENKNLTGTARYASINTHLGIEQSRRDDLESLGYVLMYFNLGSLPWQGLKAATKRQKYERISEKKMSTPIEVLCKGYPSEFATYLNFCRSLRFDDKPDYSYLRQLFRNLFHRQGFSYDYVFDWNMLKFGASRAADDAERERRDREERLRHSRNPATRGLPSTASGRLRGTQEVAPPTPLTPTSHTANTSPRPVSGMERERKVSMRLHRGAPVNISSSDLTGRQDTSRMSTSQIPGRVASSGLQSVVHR
IDE: Insulin-degrading enzyme (IDE, Homo sapiens, UniProt P14735)
AXL: Tyrosine-protein kinase receptor UFO (AXL, Homo sapiens, UniProt P30530)
Sequence of UniProt P30530 (whole entry, looked up): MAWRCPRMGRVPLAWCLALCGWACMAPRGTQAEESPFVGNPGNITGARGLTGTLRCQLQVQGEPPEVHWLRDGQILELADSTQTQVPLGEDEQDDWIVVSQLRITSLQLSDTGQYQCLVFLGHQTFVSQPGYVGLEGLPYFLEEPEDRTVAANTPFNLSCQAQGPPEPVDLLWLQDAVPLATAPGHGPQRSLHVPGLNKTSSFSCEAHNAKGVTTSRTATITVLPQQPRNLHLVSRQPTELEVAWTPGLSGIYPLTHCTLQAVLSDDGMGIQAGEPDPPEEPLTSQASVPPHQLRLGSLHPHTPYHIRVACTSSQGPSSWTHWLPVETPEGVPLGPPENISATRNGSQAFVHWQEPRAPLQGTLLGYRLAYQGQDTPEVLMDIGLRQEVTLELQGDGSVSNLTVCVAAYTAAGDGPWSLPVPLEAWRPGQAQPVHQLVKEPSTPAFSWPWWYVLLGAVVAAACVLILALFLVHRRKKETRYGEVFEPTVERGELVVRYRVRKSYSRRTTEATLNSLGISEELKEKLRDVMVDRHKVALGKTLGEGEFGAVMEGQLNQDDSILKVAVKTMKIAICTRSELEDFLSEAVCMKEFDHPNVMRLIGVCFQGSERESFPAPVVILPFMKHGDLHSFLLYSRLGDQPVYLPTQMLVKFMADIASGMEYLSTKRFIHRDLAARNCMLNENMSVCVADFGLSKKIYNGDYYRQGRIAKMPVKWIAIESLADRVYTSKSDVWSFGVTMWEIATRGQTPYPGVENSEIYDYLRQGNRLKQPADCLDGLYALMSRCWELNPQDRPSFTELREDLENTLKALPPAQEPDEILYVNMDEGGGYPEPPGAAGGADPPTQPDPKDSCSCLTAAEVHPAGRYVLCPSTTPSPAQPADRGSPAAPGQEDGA
BRD9: Bromodomain-containing protein 9 (BRD9, Homo sapiens, UniProt Q9H8M2)
Sequence of UniProt Q9H8M2 (whole entry, looked up): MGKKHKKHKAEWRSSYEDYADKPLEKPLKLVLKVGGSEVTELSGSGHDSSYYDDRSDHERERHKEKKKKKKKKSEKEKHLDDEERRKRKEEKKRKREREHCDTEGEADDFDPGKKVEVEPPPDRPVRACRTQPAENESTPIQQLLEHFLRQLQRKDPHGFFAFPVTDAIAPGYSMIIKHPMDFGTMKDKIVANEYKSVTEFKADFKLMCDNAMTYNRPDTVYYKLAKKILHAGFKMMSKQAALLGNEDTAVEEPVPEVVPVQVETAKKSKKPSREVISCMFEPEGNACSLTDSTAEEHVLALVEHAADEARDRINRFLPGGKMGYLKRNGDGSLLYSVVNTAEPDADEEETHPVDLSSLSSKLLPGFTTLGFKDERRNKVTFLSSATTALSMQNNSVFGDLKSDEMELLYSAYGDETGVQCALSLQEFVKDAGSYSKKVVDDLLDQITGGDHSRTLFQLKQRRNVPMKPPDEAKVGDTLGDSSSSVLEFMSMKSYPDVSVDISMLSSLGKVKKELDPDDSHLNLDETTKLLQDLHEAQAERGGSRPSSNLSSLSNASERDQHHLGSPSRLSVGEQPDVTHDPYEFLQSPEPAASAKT
Protein AF-9 with DOT1L: Protein AF-9, with DOT1L (Homo sapiens, UniProt P42568)
Sequence of UniProt P42568 (whole entry, looked up): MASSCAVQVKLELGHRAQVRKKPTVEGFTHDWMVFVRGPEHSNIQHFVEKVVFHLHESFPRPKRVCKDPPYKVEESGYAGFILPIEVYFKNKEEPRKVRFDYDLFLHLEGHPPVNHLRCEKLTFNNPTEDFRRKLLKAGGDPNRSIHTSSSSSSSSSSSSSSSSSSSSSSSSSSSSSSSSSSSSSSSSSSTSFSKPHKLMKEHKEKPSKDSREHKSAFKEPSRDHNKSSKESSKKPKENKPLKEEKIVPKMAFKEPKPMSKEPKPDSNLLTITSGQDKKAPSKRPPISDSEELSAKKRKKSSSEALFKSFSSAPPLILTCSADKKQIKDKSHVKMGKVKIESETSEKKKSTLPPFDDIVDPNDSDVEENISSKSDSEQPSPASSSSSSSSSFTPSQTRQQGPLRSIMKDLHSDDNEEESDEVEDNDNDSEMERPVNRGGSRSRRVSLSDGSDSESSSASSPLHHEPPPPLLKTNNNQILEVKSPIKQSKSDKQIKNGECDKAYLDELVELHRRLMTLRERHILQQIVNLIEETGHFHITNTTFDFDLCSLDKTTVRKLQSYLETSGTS
CD274: Programmed cell death 1 ligand 1 (CD274, Homo sapiens, UniProt Q9NZQ7)
Sequence of UniProt Q9NZQ7 (whole entry, looked up): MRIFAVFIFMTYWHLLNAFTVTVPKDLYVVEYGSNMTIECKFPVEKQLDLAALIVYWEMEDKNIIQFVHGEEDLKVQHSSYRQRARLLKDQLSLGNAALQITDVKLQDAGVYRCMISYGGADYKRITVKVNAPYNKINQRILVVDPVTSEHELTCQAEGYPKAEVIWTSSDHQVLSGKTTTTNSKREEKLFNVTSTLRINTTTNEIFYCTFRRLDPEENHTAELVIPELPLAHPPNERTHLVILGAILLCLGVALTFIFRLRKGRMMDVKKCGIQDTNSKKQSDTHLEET
ATP-sensitive inward rectifier potassium channel 1: ATP-sensitive inward rectifier potassium channel 1 (Homo sapiens, UniProt P48048)
Sequence of UniProt P48048 (whole entry, looked up): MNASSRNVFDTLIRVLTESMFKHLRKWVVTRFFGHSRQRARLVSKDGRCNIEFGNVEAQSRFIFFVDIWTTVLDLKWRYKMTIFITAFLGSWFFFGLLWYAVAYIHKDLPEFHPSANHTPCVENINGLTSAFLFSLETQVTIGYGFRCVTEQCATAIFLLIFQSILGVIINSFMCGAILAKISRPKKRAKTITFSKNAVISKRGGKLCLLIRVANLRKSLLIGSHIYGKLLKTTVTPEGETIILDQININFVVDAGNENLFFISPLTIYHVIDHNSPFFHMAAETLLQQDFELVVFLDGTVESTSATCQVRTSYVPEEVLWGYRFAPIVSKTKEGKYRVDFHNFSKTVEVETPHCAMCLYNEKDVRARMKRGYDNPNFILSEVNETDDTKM
SIRT3: NAD-dependent protein deacetylase sirtuin-3, mitochondrial (SIRT3, Homo sapiens, UniProt Q9NTG7)
Sequence of UniProt Q8IWT6 (whole entry, unmodified, looked up): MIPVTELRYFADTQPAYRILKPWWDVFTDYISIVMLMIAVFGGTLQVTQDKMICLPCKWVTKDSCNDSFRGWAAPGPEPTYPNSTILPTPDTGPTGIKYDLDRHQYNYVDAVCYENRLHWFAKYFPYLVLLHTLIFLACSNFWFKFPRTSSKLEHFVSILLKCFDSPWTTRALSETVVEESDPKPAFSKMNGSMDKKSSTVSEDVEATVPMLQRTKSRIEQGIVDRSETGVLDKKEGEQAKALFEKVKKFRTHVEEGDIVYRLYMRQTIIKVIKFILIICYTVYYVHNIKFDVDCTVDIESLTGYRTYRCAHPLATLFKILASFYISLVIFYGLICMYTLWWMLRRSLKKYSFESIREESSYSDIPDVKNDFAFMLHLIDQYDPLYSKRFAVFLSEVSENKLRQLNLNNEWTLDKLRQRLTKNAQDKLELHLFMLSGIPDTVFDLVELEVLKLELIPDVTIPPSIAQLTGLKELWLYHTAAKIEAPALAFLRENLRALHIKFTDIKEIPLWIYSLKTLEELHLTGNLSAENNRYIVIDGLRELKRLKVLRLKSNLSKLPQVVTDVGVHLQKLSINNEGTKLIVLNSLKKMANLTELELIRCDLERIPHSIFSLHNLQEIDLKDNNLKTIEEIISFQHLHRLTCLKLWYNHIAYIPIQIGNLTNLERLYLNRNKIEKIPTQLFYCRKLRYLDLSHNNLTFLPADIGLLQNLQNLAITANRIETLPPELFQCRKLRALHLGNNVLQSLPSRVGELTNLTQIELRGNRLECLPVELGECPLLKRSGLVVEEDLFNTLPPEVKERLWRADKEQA
Sequence of UniProt Q9NTG7 (whole entry, looked up): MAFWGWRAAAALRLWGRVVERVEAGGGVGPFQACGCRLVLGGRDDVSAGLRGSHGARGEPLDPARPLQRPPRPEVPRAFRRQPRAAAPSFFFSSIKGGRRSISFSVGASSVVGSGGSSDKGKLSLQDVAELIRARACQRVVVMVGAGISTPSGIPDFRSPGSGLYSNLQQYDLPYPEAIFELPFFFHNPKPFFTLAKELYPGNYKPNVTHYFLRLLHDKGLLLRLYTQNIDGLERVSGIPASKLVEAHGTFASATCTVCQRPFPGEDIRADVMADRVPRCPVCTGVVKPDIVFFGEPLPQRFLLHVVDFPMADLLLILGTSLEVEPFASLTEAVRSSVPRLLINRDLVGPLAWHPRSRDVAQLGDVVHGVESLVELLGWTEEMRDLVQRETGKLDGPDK
Sequence of UniProt P08246 (whole entry, looked up): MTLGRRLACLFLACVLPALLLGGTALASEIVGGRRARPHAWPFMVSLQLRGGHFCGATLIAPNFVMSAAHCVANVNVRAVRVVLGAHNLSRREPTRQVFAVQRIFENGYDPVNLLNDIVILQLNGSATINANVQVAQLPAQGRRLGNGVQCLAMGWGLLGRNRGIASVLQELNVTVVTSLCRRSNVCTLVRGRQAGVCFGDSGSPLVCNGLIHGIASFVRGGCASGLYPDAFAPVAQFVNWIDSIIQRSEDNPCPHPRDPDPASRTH
Sequence of UniProt P28074 (whole entry, looked up): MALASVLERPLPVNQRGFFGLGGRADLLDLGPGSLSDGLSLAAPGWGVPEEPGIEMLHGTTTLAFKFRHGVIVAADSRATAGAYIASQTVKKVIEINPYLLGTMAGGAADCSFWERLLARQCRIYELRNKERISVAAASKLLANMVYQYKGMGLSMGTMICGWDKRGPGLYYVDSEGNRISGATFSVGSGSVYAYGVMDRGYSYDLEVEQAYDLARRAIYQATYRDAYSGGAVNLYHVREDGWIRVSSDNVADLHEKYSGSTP

SMILES	target or system	test	test system	setting	endpoint	value
Cc1cccc(-c2nc(CN(C)C)[nH]c2-c2ccncc2)c1	CSNK1D	kinase activity	–	1 µM	inhibition	3%
c1ccc(CCCCCOCCc2ccc3[nH]cnc3c2)cc1	ATP2A2 (Sus scrofa, UniProt P11607)	ATPase activity	pig microsomes	50 µM	inhibition	~25%
C#Cc1cccc(Nc2ncnc3cc(OC)c(OCCCCCCC(=O)NO)cc23)c1	HBL-1	–	–	0.5 µM, 120 h	viability	57.9%
Cc1cccc(-c2ccc([C@@H]3[C@@H](CO)N4CCCCN(C(=O)c5ccc6c(c5)OCO6)C[C@@H]34)cc2)c1	IDE	enzyme activity, inhibitor, fluorogenic kinetic	–	with: Mca-RPPGFSAFK(Dnp)-OH substrate	EC50	> 100 µM
CC1CNCCN1S(=O)(=O)c1cccc2cnccc12 (stereo not shown)	Sulfonylurea receptor 1, Kir6.2 (Homo sapiens, UniProt Q09428+Q14654)	channel activity, inside-out patch clamp	HEK293 expressing Kir6.2/SUR1	concentration not given, 7 min, with: MgADP	inhibition	48 ± 12%
CC[C@@H]1[C@H](F)C(=O)N[C@@H]1COc1nccc2cc(C(N)=O)c(OC)cc12	AXL	ATP-site probe binding, inhibitor, ActivX ATP probe profiling	THP-1 cell lysate	0.04 mM, activation loop site	inhibition	-4.1%
CC(=O)c1nn(CC(=O)N2C[C@H](F)C[C@H]2C(=O)Nc2cccc(Br)n2)c2ccc(-c3cnc(C)nc3)cc12	Neutrophil elastase (ELANE, Homo sapiens, UniProt P08246)	enzyme activity	human neutrophils	10 µM	inhibition	14.5%
Fc1ccc(-c2ncn(-c3ccc4ccccc4c3)c2-c2ccncc2)cc1	CSNK1D	inhibitor	–	1 µM	inhibition	1%
COc1cc(-c2cc(C(C)=O)n3ccccc23)c(OC)cc1C=O	BRD9	AlphaScreen	–	1 µM	inhibition	92.6%
Fc1ccc(-c2ncn(C3=CCCCC3)c2-c2ccncc2)cc1	CSNK1D	inhibitor	–	1 µM	inhibition	28%
O=C(NC1CCNCC1)c1ccc2nc(-c3ccc(Br)cc3)c(-c3ccc(Br)cc3)nc2c1	Protein AF-9 with DOT1L	DOT1L binding, AlphaLISA	–	10 µM	inhibition	33%
Cc1c(COc2ccc(CN3CCCCC3C(=O)NCCCC(=O)N(C)CCCC34CCC(c5ccccc53)c3ccccc34)cc2Br)cccc1-c1ccccc1 (stereo not shown)	CD274	binding, inhibitor, HTRF	–	1 µM	inhibition	8.5 ± 1.4%
COc1cc(-c2cc(C(C)=O)n3ccccc23)c(OC)cc1C(C)=O	BRD9	AlphaScreen	–	1 µM	inhibition	95.4%
COc1ccc(C(=O)/C=C/c2cccc(-c3cccc(-c4ccc(CNCCO)c(OC)n4)c3C)c2)cc1	CD274	binding, inhibitor, HTRF	–	1 µM	inhibition	6.9 ± 2.3%
c1cc(-c2ccc(-c3ccc4ncc(OCC5CCNCC5)nc4c3)cc2)ccn1	Protein AF-9 with DOT1L	DOT1L binding, AlphaLISA	–	10 µM	inhibition	14 to 17%
CCC(=O)c1cc(-c2cc(OC)c(Cn3ccnc3)c(OC)c2)c2ccccn12	BRD9	AlphaScreen	–	1 µM	inhibition	94.7%
NC/C(=C\F)COc1cccc(Cn2c(=S)[nH]c(=O)c3[nH]cnc32)c1	Myeloperoxidase (MPO, Homo sapiens, UniProt P05164)	enzyme activity	–	0.037 µM	inhibition	73.9%
CC(C)c1noc2ncc(C(=O)c3ccccc3O)cc12	ATP-sensitive inward rectifier potassium channel 1	ion current, inhibitor, whole-cell patch clamp	–	10 µM	inhibition	5.59% and 5.93% and 6.9% and 1.19% and 4.17%
Fc1ccc(Nc2ccc3ncc(OCC4CCNCC4)nc3c2)cc1F	Protein AF-9 with DOT1L	DOT1L binding, AlphaLISA	–	10 µM	inhibition	19 to 40%
CCOCCOCCNC(=S)NCCCC[C@H](NS(C)(=O)=O)C(=O)N[C@H](C)C(=O)N[C@@H](CCCNC(=N)N)C(N)=O	SIRT3	enzyme activity, inhibitor	–	10 µM	inhibition	< 5%
O=C(Nc1cccc2c(=O)cc(-c3nnn[nH]3)oc12)c1ccc(OCCCCc2ccccc2)cc1	LRRC8A/LRRC8C (Homo sapiens, UniProt Q8IWT6+Q8TDW0, L134K/L136K)	ion current, whole-cell patch clamp	LRRC8-/- HCT cells	1 µM, L134K/L136K mutant, +100 mV	inhibition	46.4% and 27.9% and 50.5% and 53% and 51.1% and 18.7%
[2H]c1cc(C)c(NC(=O)c2cnc(Nc3cc(N4CCCCC4)nc(C)n3)s2)c(Cl)c1	PTK6 (Homo sapiens, UniProt Q13882)	–	–	0.01 µM	inhibition	30 to 90%
COc1cc(-c2cc(C(C)=O)n3ccccc23)c(OC)cc1C(=O)N1CCOCC1	BRD9	AlphaScreen	–	1 µM	inhibition	95.5%
N#CCc1ccc(-c2ccc3ncc(OCC4CCNCC4)nc3c2)cc1	Protein AF-9 with DOT1L	DOT1L binding, AlphaLISA	–	10 µM	inhibition	9 to 18%
Cc1ccc(C(=O)Nc2ccc3ccccc3c2)o1	ATP-sensitive inward rectifier potassium channel 1	ion current, inhibitor, whole-cell patch clamp	–	10 µM	inhibition	4.29% and 0.19% and 0% and 7.73% and 4.69%

SMILES	target or system	test	test system	setting	endpoint	value
NNc1ccc2ccccc2c1	Secernin-3 (Homo sapiens, UniProt Q0VDG4)	probe labelling, inhibitor, competitive ABPP	HEK-293T cell lysate	1 µM, 30 min, 25 °C	inhibition	inhibited
Clc1ccc2c(NN=Cc3cccs3)ccnc2c1	Plasmodium yoelii	–	17XL	384-well	IC50	> 20 µM
CNC(=O)[C@H](CNC(=O)CCn1c(=O)[nH]c(=O)c2ccccc21)NC(=O)c1cnc2ccccc2c1	PARP10 (Homo sapiens, UniProt Q53GL7)	enzyme activity, inhibitor	–	concentration not given	inhibition	inhibited
Cn1cc(-c2cnc3ccc(NC(=O)Nc4ccc(F)c(Br)c4)cc3n2)cn1	MAP3K1 (Homo sapiens, UniProt Q13233)	kinase binding, KiNativ profiling, refers to: Lys2 peptide	PANC-1 lysate	2.5 µM	inhibition	39.4%
CC(=O)c1cc(-c2ccccc2)c2ccccn12	BRD9	AlphaScreen	–	1 µM	inhibition	80.7%
Cc1ccc(S(=O)(=O)N[C@@H](CC(=O)NC(C)(C)C)C(=O)NCc2ccccc2)cc1	Proteasome component C5/PSMB5 (Homo sapiens, UniProt P20618+P28074)	β5c proteasome activity	–	100 µM	inhibition	≤ 50%
COc1cc(-c2ccc3ncc(OCC4CCNCC4)nc3c2)cc(OC)c1OC	Protein AF-9 with DOT1L	DOT1L binding, AlphaLISA	–	10 µM	inhibition	10 to 30%
Cc1c(COc2ccc(CN3CCCCC3C(=O)NCCCNC(=O)CN(C)CCCC34CCC(c5ccccc53)c3ccccc34)cc2Br)cccc1-c1ccccc1 (stereo not shown)	CD274	binding, inhibitor, HTRF	–	1 µM	inhibition	10.9 ± 2.2%
O=c1oc(-c2ccco2)nc2ccccc12	Plasma kallikrein (KLKB1, Homo sapiens, UniProt P03952)	chromogenic substrate hydrolysis	–	up to 50 µM	inhibition	no inhibition
O=C(c1ccc(F)cc1)N(Cc1ccccc1)C1CCCCC1	GABBR1 (Homo sapiens, UniProt Q9UBS5)	–	–	10 µM	inhibition	-5%
CN1CCN(c2cc(-c3ccncc3)c(-c3ccc4ccccc4c3)nn2)CC1	Secretin receptor (SCTR, Homo sapiens, UniProt P47872)	antagonist, FLIPR	–	10 µM	inhibition	21.5%
CN(c1ncccc1CNc1nc(Nc2ccc3c(c2)CC(=O)N3)ncc1C(F)(F)F)S(C)(=O)=O	CK1 (rat)	kinase activity	–	1 µM	inhibition	0%
Cc1ccc(NC(=O)Nc2ccc3ncc(OCC4CCNCC4)nc3c2)cc1C	Protein AF-9 with DOT1L	DOT1L binding, AlphaLISA	–	10 µM	inhibition	12%
COc1ccc(OC)c(NC(=O)COC(=O)COc2ccc(Nc3ccccc3)cc2)c1	uncharacterized protein (Erigeron canadensis, UniProt A0A8M0FGR5)	enzyme activity	–	100 mg/L	inhibition	> 30%
CCCCCCCCCCCCCC(=S)NCCCC[C@H](NC(=O)OCc1ccccc1)C(=O)N[C@@H](Cc1c[nH]c2ccccc12)C(=O)NC(C)C	SIRT3	enzyme activity, inhibitor	–	10 µM	inhibition	< 5%
COc1cc(C(=O)NS(=O)(=O)c2ccccc2C)ccc1Cc1cn(C)c2ccc(NC(=O)OC3CCCC3)cc12	Volume-regulated anion channel subunit LRRC8C, part LRRC8A IL1 chimera (LRRC8C, Homo sapiens, UniProt Q8TDW0, I133F)	ion current, inhibitor, whole-cell patch clamp	HCT LRRC8-/- cells	3 µM, +100 mV	inhibition	23.9% and 18.8% and 14.6% and 58.2% and 17.1%
COc1cc(-c2cc(C(C)=O)n3ccccc23)c(OC)cc1Cn1ccnc1	BRD9	AlphaScreen	–	1 µM	inhibition	94.2%
COc1ccc(C(=O)/C=C/c2cccc(-c3cccc(-c4ccc(CNC(CO)(CO)CO)c(OC)n4)c3C)c2)cc1	CD274	binding, inhibitor, HTRF	–	1 µM	inhibition	9.4 ± 0.9%
c1ccc2c(Cc3c[nH]c4ccccc34)c[nH]c2c1	HBL-1	–	–	0.5 µM, 120 h	viability	130%
Cc1ccccc1-c1ccc([C@H]2[C@H](CO)N3C(=O)CN(S(C)(=O)=O)C[C@@H]23)cc1	IDE	enzyme activity, inhibitor, fluorogenic kinetic	–	with: Mca-RPPGFSAFK(Dnp)-OH substrate	EC50	17.5 µM
CCN(CC)Cc1c(OC)cc(-c2cc(C(C)=O)n3ccccc23)cc1OC	BRD9	AlphaScreen	–	1 µM	inhibition	95.4%
c1cc(N2CCOCC2)ccc1-c1ccc2ncc(OCC3CCNCC3)nc2c1	Protein AF-9 with DOT1L	DOT1L binding, AlphaLISA	–	10 µM	inhibition	47.8%
COc1cc2nccc(Oc3ccc(NC(=O)c4cc5c(n(-c6ccccc6)c4=O)CCCC5=O)nc3)c2cc1OC	AXL	plasma inhibitory activity	human patients	10 mg/day	inhibition	84 to 100%
CC(=O)c1cc(-c2cccc(CO)c2)c2ccccn12	BRD9	AlphaScreen	–	1 µM	inhibition	89.1%

Repeated from above:
SMILES	target or system	test	test system	setting	endpoint	value
COc1ccc(C(=O)/C=C/c2cccc(-c3cccc(-c4ccc(CNCCO)c(OC)n4)c3C)c2)cc1	CD274	binding, inhibitor, HTRF	–	1 µM	inhibition	6.9 ± 2.3%
c1cc(-c2ccc(-c3ccc4ncc(OCC5CCNCC5)nc4c3)cc2)ccn1	Protein AF-9 with DOT1L	DOT1L binding, AlphaLISA	–	10 µM	inhibition	14 to 17%
CCC(=O)c1cc(-c2cc(OC)c(Cn3ccnc3)c(OC)c2)c2ccccn12	BRD9	AlphaScreen	–	1 µM	inhibition	94.7%
NC/C(=C\F)COc1cccc(Cn2c(=S)[nH]c(=O)c3[nH]cnc32)c1	Myeloperoxidase (MPO, Homo sapiens, UniProt P05164)	enzyme activity	–	0.037 µM	inhibition	73.9%
